Earlier results that unrelated publications cite.
≈ marks a conversion by molar mass, not a printed value.

Compound	tested on	assay	system	conditions	endpoint	value
CNC(C)C1CCC(N)C(OC2C(N)CC(N)C(OC3OCC(C)(O)C(NC)C3O)C2O)O1 (stereo not drawn)	Acinetobacter baumannii		clinical isolate RKI-No_3/15		MIC	2 mg/L (≈ 4.19 µM)
O=C(c1cc(-c2cccs2)[nH]n1)N1CCN(S(=O)(=O)c2ccc(Cl)s2)CC1	Plasmodium falciparum	whole cell extended time	3D7	72 h	IC50	0.87 µM
COc1ccccc1Oc1cccc(CN2CCC(NC(=O)C3CC(=O)Nc4ccccc43)CC2)c1 (stereo not drawn)	human CCR8 S110W mutant (TM3)	IP accumulation, agonist			EC50	> 10 µM
CCN(CC)c1nc(N)c2c(N)nc3c(c2c1C#N)C(=O)CN3Cc1ccccc1	Plasmodium falciparum	whole cell extended time	3D7	72 h	IC50	0.07 µM
CCNS(=O)(=O)c1ccc(OC)cc1C1(O)CCN(Cc2cccc(Oc3ccccc3OC)c2)CC1	human CCR8 S110W mutant (TM3)	IP accumulation, agonist			EC50	> 10 µM
CCCCCCCc1ccc(-c2c(C)[nH]c(C)c(Cl)c2=O)cn1	Plasmodium falciparum	whole cell extended time	3D7	72 h	IC50	0.36 µM
Nc1cccc2c1C(=O)N(C1CCC(=O)NC1=O)C2=O (stereo not drawn)			relapsed refractory multiple myeloma patients	dose not given, alternate-day dosing	overall survival	35.9 months
COc1ccccc1Oc1cccc(CN2CCC(O)(c3ccccc3C(=O)O)CC2)c1	human CCR8 G206W mutant (TM5)	IP accumulation, agonist			EC50	0.02 µM
Cc1[nH]c(C)c(-c2ccc(-c3ccccc3Cl)nc2)c(=O)c1Br	Plasmodium falciparum	whole cell extended time	3D7	72 h	IC50	0.17 µM
Nc1cc(C(F)(F)F)c(-c2nc(N3CCOCC3)nc(N3CCOCC3)n2)cn1	SHP77				GI50	6.7 µM
COc1ccccc1Oc1cccc(CN2CCC(NC(=O)C(CCN3CCCC3)c3ccccc3)CC2)c1 (stereo not drawn)	human CCR8 F254A mutant (TM6)	IP accumulation, agonist			EC50	0.065 µM
CC1(C)S[C@@H]2[C@H](NC(=O)[C@H](N)c3ccccc3)C(=O)N2[C@H]1C(=O)O	Klebsiella pneumoniae		clinical isolate RKI-No_320/16		MIC	≤ 4 mg/L
CCN(c1cc(-c2ccc(CN3CCOCC3)cc2)cc(C(=O)NCc2c(C)cc(C)[nH]c2=O)c1C)C1CCOCC1			epithelioid sarcoma patients	phase II basket	IRC-assessed ORR	15%
COc1ccc(NS(=O)(=O)c2cc(NC(=O)Cn3ccccc3=O)ccc2N2CCCCC2)cc1	Plasmodium falciparum	whole cell extended time	3D7	72 h	IC50	0.7 µM
C[C@H]1COCCN1c1nc(-c2cnc(N)cc2C(F)F)nc(N2CCOCC2)n1	NCI-H460				GI50	0.15 µM

Excerpt of the above:
Compound	tested on	assay	system	conditions	endpoint	value
COc1ccccc1Oc1cccc(CN2CCC(NC(=O)C(CCN3CCCC3)c3ccccc3)CC2)c1 (stereo not drawn)	human CCR8 F254A mutant (TM6)	IP accumulation, agonist			EC50	0.065 µM
